Assay results of several laboratories.
Protocols differ between the studies behind these lines. ± marks the error that the study gave.
Cell line: HL-60

SMILES	test	conditions	how to read	quantity	value
COc1ccc(/C=C/C(=O)CC2(O)C(=O)Nc3cc(Br)ccc32)cc1 (centres unmarked)	cell growth or viability, MTT	24 h		IC50	22.9 µM
CC(C)C[C@H](NC(=O)[C@H](C)NC(=O)[C@H](CC(N)=O)NC(=O)[C@H](CCC(=O)O)NC(=O)[C@@H](N)CCCCN)C(=O)N[C@@H](CC(C)C)C(=O)N[C@@H](CCCNC(=N)N)C(=O)N[C@@]1(C)CCCC=CCCC[C@@](C)(C(=O)N[C@@H](CC(=O)O)C(=O)NCC(=O)NCC(=O)NCC(=O)N[C@@H](CCCNC(=N)N)C(=O)N[C@@H](CCCNC(=N)N)C(=O)N[C@@H](CCCNC(=N)N)C(=O)N[C@@H](CCCNC(=N)N)C(=O)N[C@@H](CCCNC(=N)N)C(=O)N[C@@H](CCCNC(=N)N)C(=O)N[C@@H](CCCNC(=N)N)C(=O)N[C@@H](CCCNC(=N)N)C(=O)N[C@@H](CCCNC(=N)N)C(N)=O)NC(=O)[C@H](CC(=O)O)NC(=O)[C@H](CC(C)C)NC(=O)[C@H](CC(C)C)NC1=O	item: p21	10 µM, 24 h, added: 1α,25(OH)2D3 30 nM	baseline: GAPDH	mRNA level	decreased
O=C(O)c1cc(O)c2c(c1)C(=O)c1cccc(O)c1C2=O	cell growth or viability, ATP luminescence	24 h		IC50	150 µM
CC(C)=CCC/C(C)=C/Cc1c(O)cc(/C=C/c2ccc(O)cc2O)cc1O	reactive oxygen species, inhibitor, fluorescence			IC50	0.8 µg/mL
CC(C)C[C@H](NC(=O)[C@H](C)NC(=O)[C@H](CC(N)=O)NC(=O)[C@H](CCC(=O)O)NC(=O)[C@@H](N)CCCCN)C(=O)N[C@@H](CC(C)C)C(=O)N[C@@H](CCCNC(=N)N)C(=O)N[C@@H](Cc1ccc(O)cc1)C(=O)N[C@@H](CC(C)C)C(=O)N[C@@H](CC(C)C)C(=O)N[C@@H](CC(=O)O)C(=O)N[C@@H](CCCCN)C(=O)N[C@@H](CC(=O)O)C(=O)NCC(=O)NCC(=O)NCC(=O)N[C@@H](CCCNC(=N)N)C(=O)N[C@@H](CCCNC(=N)N)C(=O)N[C@@H](CCCNC(=N)N)C(=O)N[C@@H](CCCNC(=N)N)C(=O)N[C@@H](CCCNC(=N)N)C(=O)N[C@@H](CCCNC(=N)N)C(=O)N[C@@H](CCCNC(=N)N)C(=O)N[C@@H](CCCNC(=N)N)C(=O)N[C@@H](CCCNC(=N)N)C(N)=O	item: p21	10 µM, 24 h, added: 1α,25(OH)2D3 30 nM	baseline: GAPDH	mRNA level	decreased
CCN(CC)c1ccc(C=O)cc1	cell differentiation, NBT staining	up to 50 µM, 144 h, added: retinal 1 µM	baseline: retinal alone	inhibition	30%
CC(C)/C=C/c1c(O)cc(/C=C/C2=CC(=O)OC2CC(=O)O)cc1O (centres unmarked)	reactive oxygen species, inhibitor, fluorescence			IC50	0.3 µg/mL
N=C(CF)NCCC[C@H](NC(=O)c1ccccc1)C(N)=O.O=C(O)C(F)(F)F	MTT	1 µM, added: doxorubicin		viability	8.14 ± 5.1%
O=c1cc(-c2ccc(O)cc2)oc2cc(O)cc(O)c12	cell growth or viability, ATP luminescence	24 h		IC50	100 µM
CCCN(CCC)c1ccc(C=O)cc1	cell differentiation, NBT staining	up to 50 µM, 144 h, added: retinal 1 µM	baseline: retinal alone	inhibition	30%
CC(C)(O)C(O)Cc1c(O)cc(/C=C/c2ccccc2)cc1O (centres unmarked)	reactive oxygen species, inhibitor, fluorescence			IC50	9.5 µg/mL

Repeated from above:
SMILES	test	conditions	how to read	quantity	value
CC(C)/C=C/c1c(O)cc(/C=C/C2=CC(=O)OC2CC(=O)O)cc1O (centres unmarked)	reactive oxygen species, inhibitor, fluorescence			IC50	0.3 µg/mL
